Measured values collected from several papers.
Each numbered part is a random draw from the data of one study; scales do not carry over between parts.
Chain of UniProt P10721 (whole entry, unmodified, looked up): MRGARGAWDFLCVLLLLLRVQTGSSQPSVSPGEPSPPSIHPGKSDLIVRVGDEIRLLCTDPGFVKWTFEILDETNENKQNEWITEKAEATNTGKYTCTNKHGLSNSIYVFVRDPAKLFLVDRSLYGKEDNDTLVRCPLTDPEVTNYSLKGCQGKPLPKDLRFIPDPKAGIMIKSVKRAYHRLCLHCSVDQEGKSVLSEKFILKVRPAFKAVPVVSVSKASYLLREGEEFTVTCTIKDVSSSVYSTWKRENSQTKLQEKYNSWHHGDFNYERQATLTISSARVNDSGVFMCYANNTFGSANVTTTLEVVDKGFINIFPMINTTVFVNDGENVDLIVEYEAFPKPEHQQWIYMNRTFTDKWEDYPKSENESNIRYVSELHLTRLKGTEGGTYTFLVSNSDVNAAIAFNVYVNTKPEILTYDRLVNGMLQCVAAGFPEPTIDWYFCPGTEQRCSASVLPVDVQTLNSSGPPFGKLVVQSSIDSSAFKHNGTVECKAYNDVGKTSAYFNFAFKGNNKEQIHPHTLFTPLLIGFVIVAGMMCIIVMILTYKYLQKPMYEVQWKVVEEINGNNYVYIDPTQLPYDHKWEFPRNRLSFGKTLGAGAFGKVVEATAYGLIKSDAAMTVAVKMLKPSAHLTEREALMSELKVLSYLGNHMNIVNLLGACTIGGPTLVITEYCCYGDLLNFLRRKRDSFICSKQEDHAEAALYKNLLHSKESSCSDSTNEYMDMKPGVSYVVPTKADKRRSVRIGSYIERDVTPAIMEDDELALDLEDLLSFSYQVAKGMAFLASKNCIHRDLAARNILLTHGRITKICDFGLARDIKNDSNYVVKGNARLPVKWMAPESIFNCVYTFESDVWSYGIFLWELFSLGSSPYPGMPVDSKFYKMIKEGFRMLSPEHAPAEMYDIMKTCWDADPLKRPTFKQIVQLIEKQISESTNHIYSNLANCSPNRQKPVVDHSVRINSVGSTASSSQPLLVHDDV
Chain of UniProt P22888 (whole entry, looked up): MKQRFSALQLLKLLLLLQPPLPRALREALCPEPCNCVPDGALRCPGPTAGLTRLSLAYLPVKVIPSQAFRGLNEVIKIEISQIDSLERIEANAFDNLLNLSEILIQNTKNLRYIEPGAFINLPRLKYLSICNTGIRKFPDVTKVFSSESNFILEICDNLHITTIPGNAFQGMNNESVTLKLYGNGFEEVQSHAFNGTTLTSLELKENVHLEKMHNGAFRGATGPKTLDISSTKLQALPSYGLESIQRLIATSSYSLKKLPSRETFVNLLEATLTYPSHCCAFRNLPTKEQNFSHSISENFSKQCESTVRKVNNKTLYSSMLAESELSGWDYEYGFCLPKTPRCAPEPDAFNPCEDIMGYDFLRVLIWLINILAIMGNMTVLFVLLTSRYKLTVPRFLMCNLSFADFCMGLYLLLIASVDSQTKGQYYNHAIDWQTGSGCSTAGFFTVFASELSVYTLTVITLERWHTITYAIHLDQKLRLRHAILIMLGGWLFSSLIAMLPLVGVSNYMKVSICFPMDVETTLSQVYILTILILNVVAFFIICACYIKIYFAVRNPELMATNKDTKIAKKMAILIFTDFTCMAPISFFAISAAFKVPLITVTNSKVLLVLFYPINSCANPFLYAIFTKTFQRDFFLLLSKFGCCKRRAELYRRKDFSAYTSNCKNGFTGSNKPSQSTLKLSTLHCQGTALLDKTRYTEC
Chain of UniProt P35372 (whole entry, looked up): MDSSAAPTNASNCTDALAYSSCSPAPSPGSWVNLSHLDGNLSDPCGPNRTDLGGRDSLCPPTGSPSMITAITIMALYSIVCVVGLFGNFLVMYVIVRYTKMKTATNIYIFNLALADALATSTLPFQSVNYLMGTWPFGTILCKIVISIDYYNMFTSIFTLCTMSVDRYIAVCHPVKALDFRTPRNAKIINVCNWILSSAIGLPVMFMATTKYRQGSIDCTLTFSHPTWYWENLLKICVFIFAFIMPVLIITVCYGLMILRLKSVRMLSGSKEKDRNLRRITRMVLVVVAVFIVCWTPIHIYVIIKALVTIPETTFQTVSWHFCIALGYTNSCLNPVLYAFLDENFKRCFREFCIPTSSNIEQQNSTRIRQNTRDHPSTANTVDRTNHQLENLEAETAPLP
Chain of UniProt Q8NFN8 (whole entry, looked up): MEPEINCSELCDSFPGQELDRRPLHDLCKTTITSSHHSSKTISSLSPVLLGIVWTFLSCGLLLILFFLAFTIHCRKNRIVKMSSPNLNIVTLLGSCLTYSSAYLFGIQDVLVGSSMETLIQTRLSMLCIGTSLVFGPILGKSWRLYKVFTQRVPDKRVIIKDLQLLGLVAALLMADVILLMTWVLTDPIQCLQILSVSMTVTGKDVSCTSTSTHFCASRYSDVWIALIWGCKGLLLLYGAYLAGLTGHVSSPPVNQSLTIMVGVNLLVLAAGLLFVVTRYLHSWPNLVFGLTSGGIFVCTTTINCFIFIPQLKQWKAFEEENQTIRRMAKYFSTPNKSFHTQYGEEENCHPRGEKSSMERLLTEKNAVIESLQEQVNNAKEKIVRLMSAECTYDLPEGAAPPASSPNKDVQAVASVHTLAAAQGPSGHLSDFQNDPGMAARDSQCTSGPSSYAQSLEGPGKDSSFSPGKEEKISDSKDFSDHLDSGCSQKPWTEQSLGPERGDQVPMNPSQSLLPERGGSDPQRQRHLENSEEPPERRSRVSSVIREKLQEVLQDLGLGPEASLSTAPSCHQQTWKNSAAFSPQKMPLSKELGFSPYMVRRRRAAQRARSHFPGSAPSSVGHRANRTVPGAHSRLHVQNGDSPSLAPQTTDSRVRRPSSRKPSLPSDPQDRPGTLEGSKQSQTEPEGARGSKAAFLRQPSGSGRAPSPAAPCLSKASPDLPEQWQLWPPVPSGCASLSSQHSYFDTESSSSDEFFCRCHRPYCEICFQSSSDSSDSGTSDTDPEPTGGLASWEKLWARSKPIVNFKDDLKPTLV
Chain of UniProt Q16512 (whole entry, looked up): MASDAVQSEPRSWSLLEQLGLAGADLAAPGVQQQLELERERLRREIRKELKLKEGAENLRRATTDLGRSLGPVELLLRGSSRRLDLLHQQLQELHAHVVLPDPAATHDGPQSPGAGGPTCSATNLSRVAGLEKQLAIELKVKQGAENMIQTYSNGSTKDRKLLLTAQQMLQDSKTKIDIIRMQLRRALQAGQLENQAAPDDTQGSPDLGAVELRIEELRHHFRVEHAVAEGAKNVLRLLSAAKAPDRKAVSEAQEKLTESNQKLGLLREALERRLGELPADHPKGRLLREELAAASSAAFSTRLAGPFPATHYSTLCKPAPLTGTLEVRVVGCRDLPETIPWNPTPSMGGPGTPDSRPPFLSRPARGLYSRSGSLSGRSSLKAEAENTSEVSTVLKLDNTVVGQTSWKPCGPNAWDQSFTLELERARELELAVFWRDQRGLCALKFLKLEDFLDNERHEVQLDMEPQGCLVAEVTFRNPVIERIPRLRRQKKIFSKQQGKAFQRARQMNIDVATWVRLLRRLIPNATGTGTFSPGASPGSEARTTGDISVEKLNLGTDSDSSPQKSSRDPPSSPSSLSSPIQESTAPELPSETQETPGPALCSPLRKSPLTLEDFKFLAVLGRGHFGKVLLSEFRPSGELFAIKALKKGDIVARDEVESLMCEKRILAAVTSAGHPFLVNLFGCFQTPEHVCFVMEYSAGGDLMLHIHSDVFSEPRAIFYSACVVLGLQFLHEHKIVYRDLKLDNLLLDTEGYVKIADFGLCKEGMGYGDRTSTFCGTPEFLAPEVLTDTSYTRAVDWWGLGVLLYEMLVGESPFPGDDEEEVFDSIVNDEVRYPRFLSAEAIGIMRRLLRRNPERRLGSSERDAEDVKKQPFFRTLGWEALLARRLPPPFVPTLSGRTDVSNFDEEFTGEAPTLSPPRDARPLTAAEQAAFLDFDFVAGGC
Chain of UniProt P49759 (whole entry, looked up): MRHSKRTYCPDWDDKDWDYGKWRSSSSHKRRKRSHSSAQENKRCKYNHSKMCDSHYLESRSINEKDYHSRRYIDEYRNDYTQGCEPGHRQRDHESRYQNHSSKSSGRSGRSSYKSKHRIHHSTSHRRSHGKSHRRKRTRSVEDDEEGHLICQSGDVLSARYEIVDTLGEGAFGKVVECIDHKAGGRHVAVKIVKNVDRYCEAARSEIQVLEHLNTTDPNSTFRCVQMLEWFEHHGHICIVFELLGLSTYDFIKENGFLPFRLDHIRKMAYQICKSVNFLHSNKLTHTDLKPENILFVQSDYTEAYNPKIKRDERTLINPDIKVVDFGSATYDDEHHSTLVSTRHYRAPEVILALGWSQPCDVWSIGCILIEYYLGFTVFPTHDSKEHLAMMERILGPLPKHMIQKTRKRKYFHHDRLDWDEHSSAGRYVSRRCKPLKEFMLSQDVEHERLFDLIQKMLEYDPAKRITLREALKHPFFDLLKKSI

Study 1
SMILES: CC(C)CN(C)c1nc(N)c(C(=O)N=C(N)N)nc1Cl
Read-out: β-arrestin recruitment
Mode: agonist
Method: PRESTO-Tango
Concentration: 10 µM
Reference: untreated
| target | fold over basal |
| --- | --- |
| Mu-type opioid receptor (OPRM1, Homo sapiens, UniProt P35372) | 9.73 |
| Growth hormone-releasing hormone receptor (GHRHR, Homo sapiens, UniProt Q02643) | 0.6 fold |
| Probable G-protein coupled receptor 156 (GPR156, Homo sapiens, UniProt Q8NFN8) | 1.05 |
| Oxoeicosanoid receptor 1 (OXER1, Homo sapiens, UniProt Q8TDS5) | 0.58 |
| Somatostatin receptor type 2 (SSTR2, Homo sapiens, UniProt P30874) | 0.69 |
| C-X-C chemokine receptor type 3 (CXCR3, Homo sapiens, UniProt P49682) | 0.85 |
| Lutropin-choriogonadotropic hormone receptor (LHCGR, Homo sapiens, UniProt P22888) | 0.44 fold |
| G-protein coupled receptor 161 (GPR161, Homo sapiens, UniProt Q8N6U8) | 0.96 |
| Neurotensin receptor type 2 (NTSR2, Homo sapiens, UniProt O95665) | 1.12 |
| Adhesion G protein-coupled receptor L4 (ADGRL4, Homo sapiens, UniProt Q9HBW9) | 1.06 |
| GPR37 (Homo sapiens, UniProt O15354) | 1.19 |

Study 2
Method: PRP-column chromatography
| Structure (SMILES) | log k' (60) |
| --- | --- |
| CCOC(=O)[C@@H]1CSCC(=O)N[C@H](CC)C(=O)N(CC(C)C)CC(=O)N[C@H](CC(C)C)C(=O)N(C)[C@H](C)C(=O)N(C)[C@@H](C)C(=O)N[C@H](CC(C)C)C(=O)N(C)[C@H](C)C(=O)N[C@@H](CC(C)C)C(=O)N1C | 0.802 |
| CCOC(=O)[C@@H]1CSCC(=O)N[C@H](CC)C(=O)N(CC(C)C)CC(=O)N[C@@H](CC(C)C)C(=O)N2CCC[C@@H]2C(=O)N(C)[C@@H](C)C(=O)N[C@H](CC(C)C)C(=O)N(C)[C@H](C)C(=O)N[C@@H](CC(C)C)C(=O)N1C | 0.603 |
| CCOC(=O)[C@@H]1CSCC(=O)N[C@H](CC)C(=O)N(C)[C@@H](C)C(=O)N[C@@H](CC(C)C)C(=O)N2CCC[C@@H]2C(=O)N(CC(C)C)CC(=O)N[C@H](CC(C)C)C(=O)N(C)[C@H](C)C(=O)N[C@@H](CC(C)C)C(=O)N1C | 0.567 |

Study 3
Compound: Cc1c(NC(=O)c2cc(C(N)=O)nc3cc(F)ccc23)c(C(F)(F)F)nn1Cc1ccc(C#N)cc1
Read-out: cell-free assay
Method: competition with immobilised ligand
Concentration: 1 µM
| target | remaining binding [%] |
| --- | --- |
| Epithelial discoidin domain-containing receptor 1 (DDR1, Homo sapiens, UniProt Q08345) | 1.5 |
| Protein kinase C delta type (PRKCD, Homo sapiens, UniProt Q05655) | 95 |
| SRSF protein kinase 2 (SRPK2, Homo sapiens, UniProt P78362) | 100 |
| Hepatocyte growth factor receptor (MET, Homo sapiens, UniProt P08581) | 100 |
| Receptor tyrosine-protein kinase erbB-3 (ERBB3, Homo sapiens, UniProt P21860) | 92 |
| Phosphatidylinositol 4,5-bisphosphate 3-kinase catalytic subunit delta isoform (PIK3CD, Homo sapiens, UniProt O00329) | 66 |
| cGMP-dependent protein kinase 1 (PRKG1, Homo sapiens, UniProt Q13976) | 100 |
| TRAF2 and NCK-interacting protein kinase (TNIK, Homo sapiens, UniProt Q9UKE5) | 92 |
| Serine/threonine-protein kinase TAO1 (TAOK1, Homo sapiens, UniProt Q7L7X3) | 93 |
| BDNF/NT-3 growth factors receptor (NTRK2, Homo sapiens, UniProt Q16620) | 54 |
| Tyrosine-protein kinase ABL1, non-phosphorylated (ABL1, Homo sapiens, UniProt P00519) | 84 |
| Epidermal growth factor receptor (EGFR, Homo sapiens, UniProt P00533, L861Q) | 67 |
| 1-phosphatidylinositol 3-phosphate 5-kinase (PIKFYVE, Homo sapiens, UniProt Q9Y2I7) | 92 |
| Dual specificity mitogen-activated protein kinase kinase 2 (MAP2K2, Homo sapiens, UniProt P36507) | 89 |
| RAF proto-oncogene serine/threonine-protein kinase (RAF1, Homo sapiens, UniProt P04049) | 86 |
| Dual specificity protein kinase CLK1 (CLK1, Homo sapiens, UniProt P49759) | 86 |
| Mast/stem cell growth factor receptor Kit (KIT, Homo sapiens, UniProt P10721) | 95 |
| Serine/threonine-protein kinase N1 (PKN1, Homo sapiens, UniProt Q16512) | 98 |
| Tyrosine-protein kinase ABL1, phosphorylated (ABL1, Homo sapiens, UniProt P00519, Q252H) | 81 |
| Dual specificity tyrosine-phosphorylation-regulated kinase 1A (DYRK1A, Homo sapiens, UniProt Q13627) | 84 |
| Serine/threonine-protein kinase PLK2 (PLK2, Homo sapiens, UniProt Q9NYY3) | 78 |
| Mast/stem cell growth factor receptor Kit (KIT, Homo sapiens, UniProt P10721, A829P) | 64 |
| Mast/stem cell growth factor receptor Kit (KIT, Homo sapiens, UniProt P10721, D816V) | 88 |
| Tyrosine-protein kinase ABL1, phosphorylated (ABL1, Homo sapiens, UniProt P00519, M351T) | 87 |
| Non-receptor tyrosine-protein kinase TNK1 (TNK1, Homo sapiens, UniProt Q13470) | 81 |

Study 4
Target: Calcium/calmodulin-dependent protein kinase type II subunit alpha (CAMK2A, Homo sapiens, UniProt Q9UQM7)
Chain of UniProt Q9UQM7 (whole entry, looked up): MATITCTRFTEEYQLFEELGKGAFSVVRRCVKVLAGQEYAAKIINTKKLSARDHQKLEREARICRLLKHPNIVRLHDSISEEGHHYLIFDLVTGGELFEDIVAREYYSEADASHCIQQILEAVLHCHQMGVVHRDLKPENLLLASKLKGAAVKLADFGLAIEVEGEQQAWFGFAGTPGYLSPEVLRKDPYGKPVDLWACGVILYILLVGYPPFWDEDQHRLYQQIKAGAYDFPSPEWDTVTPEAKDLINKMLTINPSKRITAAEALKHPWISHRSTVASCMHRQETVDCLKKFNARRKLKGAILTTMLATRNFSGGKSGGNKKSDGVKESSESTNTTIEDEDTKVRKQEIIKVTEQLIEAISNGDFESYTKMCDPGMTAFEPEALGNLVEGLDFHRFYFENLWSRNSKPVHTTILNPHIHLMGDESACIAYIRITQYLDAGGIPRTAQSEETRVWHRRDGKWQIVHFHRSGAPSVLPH
Read-out: enzyme activity
Mode: inhibitor
Concentration: 10 µM
| Compound | inhibition [%] |
| --- | --- |
| O=C1c2cccc(O)c2C(=O)c2c(O)cccc21 | 8 |
| COc1c(/C=C/C(=O)c2ccc(O)c(O)c2)ccc(O)c1O | 5 |
| CC(C)C[C@H](NC(=O)[C@@H](N)CC(C)C)C(=O)O | 4 |
| CCCc1nc(C(C)(C)O)c(C(=O)O)n1Cc1ccc(-c2ccccc2-c2nnn[nH]2)cc1 | 6 |
| COC(=O)/C=C/C(=O)OC | 12 |
| C=C(CCC=C(C)C)[C@H]1CC[C@]2(C)[C@@H]1[C@H](O)C[C@@H]1[C@@]3(C)C[C@@H](O)[C@H](O[C@@H]4O[C@H](CO)[C@@H](O)[C@H](O)[C@H]4O[C@@H]4O[C@H](CO)[C@@H](O)[C@H](O)[C@H]4O)C(C)(C)[C@@H]3CC[C@]12C | 13 |
| N[C@@H]1CN(c2c(F)cc3c(=O)c(C(=O)O)cn([C@@H]4C[C@@H]4F)c3c2Cl)CC12CC2 | -4 |
| C[C@@H]1O[C@@H](OC[C@H]2O[C@@H](Oc3c(-c4ccc(O)cc4)oc4cc(O)cc(O)c4c3=O)[C@H](O[C@@H]3O[C@H](CO)[C@H](O)[C@H](O)[C@H]3O)[C@@H](O)[C@@H]2O)[C@H](O)[C@H](O)[C@H]1O | -33 |
| CCCCCC1=C(C)CCC1=O | -4 |
| CCC/C=C1\OC(=O)C2=C1CC[C@H](O)[C@H]2O | 44 |
| COC(=O)OCOc1c2n(ccc1=O)N([C@@H]1c3ccccc3SCc3c1ccc(F)c3F)[C@@H]1COCCN1C2=O | 0 |

For quick reference, copied from above (study 3):
| target | remaining binding [%] |
| --- | --- |
| Dual specificity mitogen-activated protein kinase kinase 2 (MAP2K2, Homo sapiens, UniProt P36507) | 89 |
| RAF proto-oncogene serine/threonine-protein kinase (RAF1, Homo sapiens, UniProt P04049) | 86 |
| Dual specificity protein kinase CLK1 (CLK1, Homo sapiens, UniProt P49759) | 86 |
